Assay results from different studies.
Every numbered part comes from another study and shows a few of its results, in no order.

Set 1
Target: Sal-like protein 4, full length isoform B (SALL4, Homo sapiens, UniProt Q9UJQ4-2, residues 1-616)
Technique: universal PBM
Form: double-stranded DNA, one strand shown
Sample: in vitro
Tested at: not given
Setting: 8-mer, flanks averaged, mean of replicates
Direction: higher = stronger binding
Residues (chain): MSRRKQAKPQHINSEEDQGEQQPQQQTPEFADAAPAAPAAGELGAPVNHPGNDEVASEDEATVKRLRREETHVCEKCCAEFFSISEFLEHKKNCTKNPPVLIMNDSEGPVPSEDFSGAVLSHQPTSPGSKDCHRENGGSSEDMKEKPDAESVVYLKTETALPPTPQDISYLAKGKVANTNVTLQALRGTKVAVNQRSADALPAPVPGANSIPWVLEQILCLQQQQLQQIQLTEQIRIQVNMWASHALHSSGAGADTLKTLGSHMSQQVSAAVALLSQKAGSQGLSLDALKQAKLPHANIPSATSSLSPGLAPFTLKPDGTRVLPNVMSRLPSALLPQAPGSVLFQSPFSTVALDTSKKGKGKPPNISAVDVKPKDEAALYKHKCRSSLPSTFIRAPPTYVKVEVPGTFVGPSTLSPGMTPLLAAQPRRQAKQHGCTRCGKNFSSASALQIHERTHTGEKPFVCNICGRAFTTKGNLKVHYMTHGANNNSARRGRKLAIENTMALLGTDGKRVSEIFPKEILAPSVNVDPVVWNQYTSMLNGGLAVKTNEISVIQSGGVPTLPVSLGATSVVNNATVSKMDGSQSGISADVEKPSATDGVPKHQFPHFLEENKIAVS
Sequence | E-score
ACGTCTCC | -0.0362
AGATAATA | 0.321
ATCCAGTG | -0.0239
ATTAGCTA | 0.1
CCCTTGCA | -0.213
GGAACTTA | 0.0769
CATCTCCC | -0.144
AATAGAAC | 0.266
CCACGTAC | -0.0693
AAGATCAG | -0.146
ATTGATCG | 0.0853
GCCAACAC | -0.0576
CGAAGGTA | 0.0438
GGAGGGCC | -0.356
CTGTCCTC | -0.214
TCGGTTAA | 0.0795
CCCCGGAC | -0.303
CACGACCG | -0.287
ACAAGAGA | -0.0709
ATCAAATC | 0.19
CACGCTGG | -0.136
GTTATGGA | 0.265
CTAGTGTC | 0.0249
AGCTCTAT | -0.0284
GCCCTATA | 0.145

Set 2
Target: Histone acetyltransferase KAT6A, winged helix 2, GST fusion (KAT6A, Homo sapiens, UniProt Q92794, residues 85-181)
Technique: protein binding microarray
Form: double-stranded DNA, one strand shown
Sample: in vitro
Tested at: not given
Setting: 8-mer, flanks averaged, mean of 2 arrays, mostly near background
Relative to: not given
Direction: higher = stronger binding
Residues (chain): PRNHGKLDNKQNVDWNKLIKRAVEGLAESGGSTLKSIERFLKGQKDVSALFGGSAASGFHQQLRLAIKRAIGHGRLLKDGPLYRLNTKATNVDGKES
Sequence | E-score
CATAGGCC | 0.0168
CAATTAGG | 0.0929
AAGTCGAT | -0.154
CGCTCTCA | -0.088
GTATGCGA | 0.134
CCGATCGA | 0.134
GTTGACCA | 0.0622
ATGCGAGG | -0.0602
AGTATTGA | -0.0575
GAAAGCGC | 0.203
CATTTGCC | -0.0307
AACTAGCC | -0.143
AGACCGGG | 0.0809
GTAGTCAC | -0.0918
TGAGCGCA | -0.0182
ATATAGAT | -0.00697
ACTTCGGG | 0.0867

Set 3
Target: human cyclin A2
Technique: competitive growth deep sequencing
Form: peptide
Organism: Saccharomyces cerevisiae
Strain: cyclin A2-Cln2 fusion strain
Setting: peptide tiling library
Direction: direction not given
Molecule | enrichment score
TRRRLFVENDSP | 3.23
TSPGPVLLHPSPSTTQ | 0.425
RDLFDCDFGDLTPLDF | 1.43
MNQELLSVGSKRRRTG | 1.34
RVSGLLSWTLSRVLWL | -0.381
QDYERRLLRQIVIQNE | 0.0577
IQKKLRFEDTLEFVGF | 0.0342
PFSENVSAVQKLDFSD | 1.85
KRRLDLETDHQY | 2.79
AGSAKRRLFGEDPPKE | 2.82
PLRKAKRARLCSSSSS | 1.82
ESSTVSEEDYFSSHRD | 0.959
CFRCLLFSFSGRSGVE | -0.0618
ISRLFPPRTPGWHQLQ | -1.08

Set 4
Target: Ras GTPase-activating protein-binding protein 1, full length (G3BP1, Homo sapiens, UniProt Q13283)
Sequence of UniProt Q13283 (whole entry, looked up): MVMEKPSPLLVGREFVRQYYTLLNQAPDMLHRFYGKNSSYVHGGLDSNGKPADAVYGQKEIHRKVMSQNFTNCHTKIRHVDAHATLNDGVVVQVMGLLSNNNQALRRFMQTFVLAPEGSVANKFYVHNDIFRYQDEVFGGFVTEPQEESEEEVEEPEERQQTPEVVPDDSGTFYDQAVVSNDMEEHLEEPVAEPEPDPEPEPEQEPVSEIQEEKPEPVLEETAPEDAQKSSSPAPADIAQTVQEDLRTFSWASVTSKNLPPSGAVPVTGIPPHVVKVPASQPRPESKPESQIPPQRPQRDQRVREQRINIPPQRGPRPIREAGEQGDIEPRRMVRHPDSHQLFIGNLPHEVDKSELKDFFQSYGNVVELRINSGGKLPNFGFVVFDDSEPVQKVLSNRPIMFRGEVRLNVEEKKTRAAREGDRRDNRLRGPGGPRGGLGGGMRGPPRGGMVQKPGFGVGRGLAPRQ
Technique: RNA Bind-n-Seq
Form: RNA
Sample: in vitro
Tested at: 200 nM
Setting: whole 134-nt RNA, ends assumed
With: 150 mM LiCl
Relative to: input library
Direction: higher = stronger binding
All molecules: 7-deaza-guanosine replaces G
Sequence | log2 enrichment
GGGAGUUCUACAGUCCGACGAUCUGCGGGACAAAGAAGUGGCCAAUCGAUACUUUACCACUGUCUGUGUGAGAUUACUGCUUGAGAGCAAAGAAAAGAAGAUCAGGGAAUUCAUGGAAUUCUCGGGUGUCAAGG | -0.295
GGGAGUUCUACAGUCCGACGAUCGUCCUGUGCUACACAUCGUAUGUACCGAAUCAAAUUUUUUUAAACCCCCAAAUUUAAAAAAGUAUUAUGUUACGCCGUUCGGAUCUGCACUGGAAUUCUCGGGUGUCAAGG | -1.49
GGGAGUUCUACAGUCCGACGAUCUGGGAGGUGGAUUUUGUUUAUUUUUUUAGCUCAUUUCCAGGGGUGGGAAUUUUUUUUUAAUAUGUGUCACGAAUAAAGUUGUUUUUGAAAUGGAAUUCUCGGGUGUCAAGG | 0.0838
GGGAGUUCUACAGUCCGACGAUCUUGCCCUGGUGGCAUGCGGGGAGGAAGAGGUGGCCUCAUGGAUCGUGGUGGUCCCGGUGGAAUGUUCAGAGGUGGCCGUGGUGGAGACAGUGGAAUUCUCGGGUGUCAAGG | 0.721
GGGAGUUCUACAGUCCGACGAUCCAAGCCAAGGAAAUGGUGUUAGAGUUAAUUCGUGAUCAAGGCGGUUUCAGAGAAGUUCGGAAUGAGUAUGGGUCAAGAAUAGGAGGAAAUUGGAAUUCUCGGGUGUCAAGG | -2.28
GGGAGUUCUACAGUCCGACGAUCAGUCCUGUGCUACACAUCGUAUGUACCGAAUCAAACCCAAACCCCCCCAAACCCAAAAAAGUAUUAUGUUACGCCGUUCGGAUCUGCACUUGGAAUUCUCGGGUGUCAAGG | 0.395
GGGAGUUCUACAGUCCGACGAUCUCAAGUCCUGUGCUACACAUCGUAUGUACCGAAUCGGGUUUGGGAGGGAAAGGGAAAGUAUUAUGUUACGCCGUUCGGAUCUGCACUUCCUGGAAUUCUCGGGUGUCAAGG | -0.945
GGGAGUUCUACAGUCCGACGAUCUGGGAGGUGGAUUUUGUUUAUUUUUUUAGCUCAUUUCCAGGGGCGGGAAUUUUUUUUUAAUAUGUGUCAUGAAUAAAGUUGUUUUUGAAAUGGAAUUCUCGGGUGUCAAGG | -0.431
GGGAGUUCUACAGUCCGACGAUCUAGAUAUCCAUAGAAAAGAGAACUCUGGAGCUGCAGAGAAGCCUGUCACCAUCCAUGCCACCCCAGAGGGGACUUCUGAAGCAUGCCGCAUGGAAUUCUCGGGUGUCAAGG | -0.823
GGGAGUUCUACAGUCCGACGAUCCAAGUCCUGUGCUACACAUCGUAUGUACCGAAUCGGGGAAAGGGAAAGGAAAGGGGAAAGUAUUAUGUUACGCCGUUCGGAUCUGCACUUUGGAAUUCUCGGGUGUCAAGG | -0.37
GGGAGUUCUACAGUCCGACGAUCGUCCUGUGCUACACAUCGUAUGUACCGAAUCGGGUUUUUGGGUUUUUUUGGGUUUGGGAAAGUAUUAUGUUACGCCGUUCGGAUCUGCACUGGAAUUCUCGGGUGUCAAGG | 0.435

Set 5
Target: RNA binding protein fox-1 homolog 2, RRM domain, GST-SBP tag (RBFOX2, Homo sapiens, UniProt O43251-10, residues 100-194)
Technique: RNA Bind-n-Seq
Form: RNA
Sample: in vitro
Tested at: 365 nM
Setting: natural RNA segment, single round, ends assumed
Relative to: no-protein control
Direction: higher = stronger binding
Construct (chain): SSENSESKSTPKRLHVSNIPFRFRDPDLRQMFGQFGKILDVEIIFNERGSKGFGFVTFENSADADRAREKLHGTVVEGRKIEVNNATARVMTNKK
Sequence | RBNS enrichment (R)
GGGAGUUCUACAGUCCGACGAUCAGGAUCAGUCGUGGGCAGGACUCACAUACCUCAGCUCUGGAGGAGCUAGCACUGUCUGGAAUGGCCUGUGUUGUAAGUGUCUUGGCCUCUAGGGAAGGUUUGUGCUGGCCUGGAAUUCUCGGGUGCCAA | 4.77
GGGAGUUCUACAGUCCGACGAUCUUAACCACACAUUGUGGGUGAUGGGAAGACGAUUUCAGCUGACAGAGUUAAUGGCAACCAAUAAUGGUGGCCUGUAGCUGCUAAGAGCUUCACGCAGGUUUGGCCUGGGCUGGAAUUCUCGGGUGCCAA | 0.272
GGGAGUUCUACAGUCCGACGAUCCUGGAGAUGGCAAAAUCCUCUAAAAUGUCGAGGUCUCUUGAAGACUUGAGAAGCUGUCACAAGGUCACUACAAGCCCAACCUGCCCCUUCACUUUGCCUUCCUGAGUUGGUGGAAUUCUCGGGUGCCAA | 0.23
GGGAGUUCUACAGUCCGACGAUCUGCGAAAACGAUGCCCACCUGCCCAUCUGUCCAUCAGCCUCCCUUCUCGGUCCUCACCAGCCCAUCACUUAUAGUGGGCUCAUCAGGAGGAGCAGGGGAGGAGGACAGAGUGGAAUUCUCGGGUGCCAA | 0.211
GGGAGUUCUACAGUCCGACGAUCCUUGGCAACUUUACUUGGCUGAAUGAACUCCAAUCGGAAACAAUUGCUUCAAGCCAGUUUUUCCUUUUUACCCUCCCCCAAUCCAUGAAAGCCUAAGUGUAAAUAUAUAUUGGAAUUCUCGGGUGCCAA | 0.931
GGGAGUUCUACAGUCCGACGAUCCGAUUUGCCAUCGAAAGACGACCUCUACUUUUUUCUUUUGUAUUUUGAUAAACACUGAAGAAGCUGGAGCUGUUAAAUUUAUCUUGGGGAAAUCUCAGAACUGGUUUAUUUGGAAUUCUCGGGUGCCAA | 0.452
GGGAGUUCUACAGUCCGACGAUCACUUGGGACCAGAUCAGCUCUGCAUCCUUCAUUCUUCCCUCUGUCUCUAUUACGCAAUGUUCCGAAGUUAAAACCCACCAUCCUGCCGCUCAAGAAGACUGACCGGUACGUGGAAUUCUCGGGUGCCAA | 0.888
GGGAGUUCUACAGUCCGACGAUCUACUGCUGGCAACAUUCCUGCUCCACCUCCUGGAUGCCCUCCCAAUGCUGCUCAGCUUGCAGUCAUGCAGGGAGCCAACGUCCUCGUAACUCAGCGGAAGGGGAACUUCUUGGAAUUCUCGGGUGCCAA | 0.295
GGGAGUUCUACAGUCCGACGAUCGGAAACCUGGCUUUGCUCUGGACAAAGGGUUCCAGAGAGAAGCUAGAAGUCCCCCUUGAAUGACCCCCAGAGCCCCUCUGAGAAGGGCUGGAGUUUGGGGGAAGGGGAUGUGGAAUUCUCGGGUGCCAA | 1.44
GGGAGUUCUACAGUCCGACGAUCUUGUUCUGUGUACUGUAUGUGACACAAGCCUACAGGAUUUGCACUAAGAAAAGCUUGGUAGGAGCUUGCUGCUAUGGAGGAAAGAACAUAUUAAAAACUUAUUUUCCCUCUGGAAUUCUCGGGUGCCAA | 0.521
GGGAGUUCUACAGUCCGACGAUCAACAUCACGCAUGUCAUUCACUGCCUUGCCACUCCAUCUCCCUCCGUGCUCCAGCCACCCCUGAGCUGAGGCUCCCAUUGUCUCCAUCAGAGCCUGCAUGUGUAUGCCGUUGGAAUUCUCGGGUGCCAA | 14.6
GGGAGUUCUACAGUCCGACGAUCAAAAUAGACUACUGCGAUUGAAAUGAACUCAAUAUGUAGUUAAGUUAUAGUUUUCUUCAAUGUAUUUUUAGUUACUUGGGUCACAAAUGUUCAAUUUCAGCAUAUUUUAGUGGAAUUCUCGGGUGCCAA | 0.733

Repeated from above (set 1):
Sequence | E-score
ATCCAGTG | -0.0239
ATTAGCTA | 0.1
CCCTTGCA | -0.213
GGAACTTA | 0.0769
CATCTCCC | -0.144
AATAGAAC | 0.266
CCACGTAC | -0.0693
AAGATCAG | -0.146
ATTGATCG | 0.0853
GCCAACAC | -0.0576
CGAAGGTA | 0.0438
